Results of several laboratories.
Every numbered part comes from another study and shows a few of its results, in no order. Several values in a cell are separate wells, animals, samples, runs or records.

Sample 1
Target: Ras GTPase-activating protein-binding protein 1, C-terminal RGG region (G3BP1, Homo sapiens, UniProt Q13283)
Sequence of UniProt Q13283 (whole entry, looked up): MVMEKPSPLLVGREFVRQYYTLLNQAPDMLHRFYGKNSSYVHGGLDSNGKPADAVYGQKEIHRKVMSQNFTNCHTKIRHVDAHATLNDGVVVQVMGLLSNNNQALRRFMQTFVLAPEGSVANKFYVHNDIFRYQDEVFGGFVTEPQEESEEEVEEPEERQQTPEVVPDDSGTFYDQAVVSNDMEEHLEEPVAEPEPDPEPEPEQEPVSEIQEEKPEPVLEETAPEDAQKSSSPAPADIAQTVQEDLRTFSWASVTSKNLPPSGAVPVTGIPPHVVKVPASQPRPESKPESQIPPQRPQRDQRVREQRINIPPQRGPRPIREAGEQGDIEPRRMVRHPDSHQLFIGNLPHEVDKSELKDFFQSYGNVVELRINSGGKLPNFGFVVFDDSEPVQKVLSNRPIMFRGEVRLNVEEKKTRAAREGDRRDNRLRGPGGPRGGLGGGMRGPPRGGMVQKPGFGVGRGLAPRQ
Method: RNA Bind-n-Seq
Form: RNA
Sample: in vitro
Concentration: 1 µM
Notes: whole 134-nt RNA, ends assumed
Together with: 150 mM KCl
Reference: input library
Reading: higher = stronger binding
Oligonucleotide	log2 enrichment
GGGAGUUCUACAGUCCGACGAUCCCUGUGCUACACAUCGUAUGUACCGAAUCGGGGAAAAAGGGGAAAAAGGGGUUUUUGGGGAAAGUAUUAUGUUACGCCGUUCGGAUCUGCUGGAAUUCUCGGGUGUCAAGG	1
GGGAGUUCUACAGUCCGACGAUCUGGCCCUGGUGGCAUGCGGGGAGGAAGAGGUGGCCUCAUGGAUCGUGGUGGUCCCGGUGGAAUGGUCAGAGGUGGCCGUGGUGGAGACAGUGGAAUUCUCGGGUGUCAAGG	3.49
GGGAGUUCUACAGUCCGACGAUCCCUCAAGUCCUGUGCUACACAUCGUAUGUACCGAAUCGGGUGGGUGGGUGGGGAAAGUAUUAUGUUACGCCGUUCGGAUCUGCACUUCCAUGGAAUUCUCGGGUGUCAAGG	0.975
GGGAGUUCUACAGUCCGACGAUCAGUCCUGUGCUACACAUCGUAUGUACCGAAUCGGGGAGGGGUUUUUUUGGGGUGGGGAAAGUAUUAUGUUACGCCGUUCGGAUCUGCACUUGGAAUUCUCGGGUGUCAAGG	1.63
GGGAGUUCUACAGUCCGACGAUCUAGGUGUUAUCUUCAGGAAGGCACACUGGACCUGCUAAAUUAACAAAUGGAAAGAAAGCGUAAGUACUUGAAGACGUUUACAACUUCAGAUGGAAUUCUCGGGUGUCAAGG	-2.06

Sample 2
Cell line: HEK-293T
Observed: pseudovirus infection
Method: FDA-approved drug library screen
Organism: VSV pseudotyped with SARS-CoV-2 spike
Concentration: 10 µM
Time: 16 h
Reference: vehicle-treated
Structure (SMILES)	GFP-positive cells
O=C(c1ccc(F)c(F)c1Nc1ccc(I)cc1F)N1CC(O)([C@@H]2CCCCN2)C1	40.9%
COCCCC/C(=N\OCCN)c1ccc(C(F)(F)F)cc1	55.9%
CC(C)CC(N(C)C)C1(c2ccc(Cl)cc2)CCC1 (centres unmarked)	102%
c1ccc2c(CC3=NCCN3)cccc2c1	84%
C[C@]12CCC(=O)C=C1CC[C@@H]1[C@@H]2CC[C@@]2(C)[C@H]1CC[C@]2(C)O	76.3%
COc1cc(C(C)=O)ccc1OCCCN1CCC(c2noc3cc(F)ccc23)CC1	76.9%

Sample 3
Target: Replicase polyprotein 1ab, nsp13 helicase (rep, Severe acute respiratory syndrome coronavirus 2, UniProt P0DTD1)
Action: inhibitor
Concentration: 20 µM
Compound	inhibition
CN1C(=O)CC[C@H]1c1cccnc1	2.72%
CCC(=O)O[C@@](Cc1ccccc1)(c1ccccc1)[C@@H](C)CN(C)C	1.12%
C[C@H](N)C(=O)N[C@@]1(C(=O)O)C[C@@H](Sc2nnc[nH]2)[C@H]2[C@H](C(=O)O)[C@H]21	6.48%
Cc1nc2ccccn2c(=O)c1CCN1CCC(C(=O)c2ccc(F)cc2)CC1	2.1%
C[C@]12CC[C@H]3[C@@H](CC[C@@]45O[C@@H]4C(O)=C(C#N)C[C@]35C)[C@@H]1CC[C@@H]2O	0.75%
COc1cc(OC)c(C=C2C(=O)Nc3ccccc32)c(OC)c1	4.69%
c1cc2c(cc1[C@H]1OC[C@H]3[C@@H]1CO[C@@H]3c1ccc3c(c1)OCO3)OCO2	-2.15%
O=C1CCCC(=O)C1C(=O)c1ccc(C(F)(F)F)cc1[N+](=O)[O-]	2.7%
Oc1ccccc1	-1.02%
CS(=O)(=O)CCNCc1nc(-c2ccc3ncnc(Nc4ccc(OCc5cccc(F)c5)c(Cl)c4)c3c2)cs1	0.83%
NC(N)=NCCC[C@@H](N)C(=O)N[C@@H](CCCN=C(N)N)C(=O)N1CCC[C@H]1C(=O)N1C[C@H](O)C[C@H]1C(=O)NCC(=O)N[C@@H](Cc1cccs1)C(=O)N[C@@H](CO)C(=O)N1Cc2ccccc2C[C@@H]1C(=O)N1[C@H](C(=O)N[C@@H](CCCN=C(N)N)C(=O)O)C[C@@H]2CCCC[C@@H]21	-6.08%
COC(=O)C1=C(C)NC(C)=C([N+](=O)[O-])[C@@H]1c1ccccc1C(F)(F)F (racemic)	19.1%
COC1CCN(c2cccc(-c3cc(NC(C)=O)nc(-n4nc(C)cc4C)n3)n2)CC1	-0.29%
OC(CCCN1CCN(c2ncc(F)cn2)CC1)c1ccc(F)cc1 (centres unmarked)	5.4%
C[C@@H]1C(=O)O[C@H]2[C@H](O)[C@@]34[C@H]5C[C@@H](C(C)(C)C)[C@]36[C@@H](OC(=O)[C@@H]6O)O[C@@]4(C(=O)O5)[C@@]12O	-0.95%
Cc1[nH]c2ccc(F)cc2c1-c1nc2c3cccnc3c3ncccc3c2[nH]1	8.46%
CC(=O)N1CCN(c2ccc(OC[C@@H]3CO[C@@](Cn4ccnc4)(c4ccc(Cl)cc4Cl)O3)cc2)CC1 (racemic)	3.19%
C(#CCN1CCCC1)CN1CCCC1	3.57%
COc1cc(/C=C(\C#N)C(N)=O)cc(CSc2nc3ccccc3s2)c1O	5.58%
O=c1ccc2cc(O[C@@H]3O[C@H](CO)[C@@H](O)[C@H](O)[C@H]3O)c(O)cc2o1	11%
CN1CCN2c3c(cccc31)[C@@H]1CN(CCCC(=O)c3ccc(F)cc3)CC[C@@H]12	7.88%
OCc1ccc(-c2ccc(-c3ccc(CO)s3)o2)s1	58.1%
CCCCc1nc(C)c(CC(=S)N(C)C)c(=O)n1Cc1ccc(-c2ccccc2-c2nnn[nH]2)cc1	9.96%

Sample 4
Target: Interferon regulatory factor 7, full length, phosphomimetic (IRF7, Homo sapiens, UniProt Q92985, residues 1-503, S471D/S472D/S475D/S476D/S477D/S483D/S484D/S487D)
Sequence of UniProt Q92985 (whole entry, unmodified, looked up): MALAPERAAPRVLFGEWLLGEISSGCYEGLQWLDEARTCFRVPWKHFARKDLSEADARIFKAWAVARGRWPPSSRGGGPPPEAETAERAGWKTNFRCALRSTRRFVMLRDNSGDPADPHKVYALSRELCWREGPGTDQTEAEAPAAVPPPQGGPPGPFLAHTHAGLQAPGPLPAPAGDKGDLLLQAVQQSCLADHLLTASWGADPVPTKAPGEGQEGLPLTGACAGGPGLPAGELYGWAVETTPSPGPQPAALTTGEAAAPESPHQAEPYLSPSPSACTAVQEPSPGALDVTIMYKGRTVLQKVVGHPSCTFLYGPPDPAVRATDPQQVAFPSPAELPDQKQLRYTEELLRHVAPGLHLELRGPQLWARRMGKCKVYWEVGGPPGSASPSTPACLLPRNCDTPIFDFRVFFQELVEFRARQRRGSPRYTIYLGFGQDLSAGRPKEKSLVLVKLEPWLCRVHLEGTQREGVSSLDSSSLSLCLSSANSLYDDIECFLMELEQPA
Method: protein-binding microarray
Form: double-stranded DNA, one strand shown
Sample: in vitro
Concentration: 2200 nM top
Notes: 60-bp whole probe
Together with: salmon DNA 0.4 mg/ml
Reference: random background probes
Reading: higher = stronger binding
All sequences stand within: GCCTAGCAC … GTCTTGATTCGCTTGACGCTGCTG
Oligonucleotide	fitted relative affinity [z-score]
TCACCTCCAGGTTCTCTGACTGTGCTA	0.981
TTAGACCTGGGGTATCGATTAGTGCTA	-0.304
GACGAACTGAGTCTCGAGAGGTGCTAG	-0.128
TTAGAACTGGGGATTCGATTAGTGCTA	0.262
TGAGATTTCAGTATCGATTAGTGCTAG	0.61
GACGAATTCGGGTTTCGAGACGTGCTA	2.03
TTAGATATCGGGACTGGATTGGTGCTA	-0.253
GTAGGTTTCGGGACTGGGTTAGTGCTA	3.03

Sample 5
Target: RING finger protein unkempt homolog, zinc fingers 1-6, GST-SBP tag (UNK, Homo sapiens, UniProt Q9C0B0, residues 30-357)
Sequence of UniProt Q9C0B0 (30-357, looked up): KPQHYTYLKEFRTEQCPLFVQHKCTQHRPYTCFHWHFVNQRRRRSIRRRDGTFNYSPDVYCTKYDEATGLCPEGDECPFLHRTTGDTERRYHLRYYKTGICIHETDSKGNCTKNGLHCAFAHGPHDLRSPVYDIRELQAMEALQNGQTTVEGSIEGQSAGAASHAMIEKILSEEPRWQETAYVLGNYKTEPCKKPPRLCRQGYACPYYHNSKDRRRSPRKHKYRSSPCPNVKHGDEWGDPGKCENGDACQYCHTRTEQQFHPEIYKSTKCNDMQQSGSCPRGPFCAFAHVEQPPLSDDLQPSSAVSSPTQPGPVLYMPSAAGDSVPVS
Method: RNA Bind-n-Seq
Form: RNA
Sample: in vitro
Concentration: not given
Notes: RNA with constant flanks, human-mouse chimeric sites, ends assumed
Reference: input RNA pool
Reading: higher = stronger binding
Oligonucleotide	bound/input enrichment [ratio]
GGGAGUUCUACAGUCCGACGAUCCCAAUCGUGGAGCAGUACUUGAAGACAAAAAAGAACUCUAAUAAUUUAAUCAUCAAGUACAUUAGCUGCCGCCUGCUGACACUCAUCAUUAUACUGUUAGCGUGUAUCUACCUGGGCUAUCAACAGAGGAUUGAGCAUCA	0.407
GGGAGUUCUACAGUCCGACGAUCUAUAUCACCAAUGUCCUACAAAAUCCUGAUUUGGCUCUGAGAAUGGCUGUGCGGAACAACUUAGCCGGUGCUGAAGAACUCUUUGCCCGGAAAUUUAAUGCUCUCUUCGCCCAGGGAAACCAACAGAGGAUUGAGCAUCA	0.611
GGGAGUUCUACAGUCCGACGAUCUCCCAAAUCCAGCAGCUAGAAGGAGCCAAUUGUUUGUCACUCCACACACAGGGAAGGCGAUAACAUUGUACAUUGGUUUACAUUUUUUCCCCCUGUGGAUUUUUCUAUCCUAGUGCUUGCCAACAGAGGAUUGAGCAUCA	0.421
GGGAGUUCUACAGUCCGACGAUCCCAAUUGUGGAGCAGUACUUGAAGACAAAGAAAAAUUCUAAUAAUUUAAUCAUCAAGUACAUUAGCUGCCGCCUGCUGACACUCAUCAUUAUACUGUUGGCAUGUAUCUACCUGGGCUAUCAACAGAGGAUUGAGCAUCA	0.323
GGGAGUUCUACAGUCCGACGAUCAGAUUCCCUCUCUUAAAGCCUUCUCCAAAGUUGGAGUCUCUUACAGAUGCCUCAUCCCCUGUUAGCGUUUUAGUUUGGACCACCCAGCCUUGGACAAUUCCCGCCAACCAGGCAAUUUGCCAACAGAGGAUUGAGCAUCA	0.729
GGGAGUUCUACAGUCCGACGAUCGAUGAUAAUCACACAAACAAGUCACUGUUACAUGACCAGCCUUGGGAUUCUUCUCCUGAUUAGUAUUCUCCCUGGAACCACUGGUCAAGGGGAAUCAAGACGACAAGAACCCGGGGACUUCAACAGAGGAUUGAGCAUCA	0.203
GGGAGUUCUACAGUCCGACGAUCGCGGCAGAAUCAUGGAGGACAUAAUGCAGCUCCCCAAAGCGCGCGUCAACGCCAGCAUGUUACCACAAUUCAUCGACCGGCCCGUGUGCUUCGUAGGGAAGCUGGAAAAGAUUCAUCCCACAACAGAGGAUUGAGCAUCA	0.135

Sample 6
Organism: SARS-CoV-2
Observed: cytopathic effect
Cell line: Vero E6
Concentration: 10 µM
Structure (SMILES)	inhibition
CO[C@@H]1[C@H](OC(=O)NC(=O)CCl)CC[C@]2(CO2)[C@H]1[C@@]1(C)O[C@@H]1CC=C(C)C	-0.17% and -6%
CCCCCCNC(=O)n1cc(F)c(=O)[nH]c1=O	-2.6%
CCn1c(-c2nonc2N)nc2cnc(Oc3cccc(NC(=O)c4ccc(OCCN5CCOCC5)cc4)c3)cc21	-13.9%
O=C(c1ccc(Cl)cc1)c1cc([N+](=O)[O-])ccc1N1CCOCC1	-10.1%

Some of these lines once more (sample 3):
Compound	inhibition
C(#CCN1CCCC1)CN1CCCC1	3.57%
COc1cc(/C=C(\C#N)C(N)=O)cc(CSc2nc3ccccc3s2)c1O	5.58%
O=c1ccc2cc(O[C@@H]3O[C@H](CO)[C@@H](O)[C@H](O)[C@H]3O)c(O)cc2o1	11%
CN1CCN2c3c(cccc31)[C@@H]1CN(CCCC(=O)c3ccc(F)cc3)CC[C@@H]12	7.88%
